Published values gathered from unrelated publications.
Protocols differ between the studies behind these lines. Several values in a cell are separate wells, animals, samples, runs or records. Numbers after ± are the reported error.

CC(C)=CCC[C@@]1(C)C(CC[C@H]2[C@]3(C)CC[C@H](O)C(C)(C)O[C@H]3CC[C@@]2(C)O)=C(C)CC[C@H]1O — result for “intracellular [3H]-paclitaxel remaining”: 63.6% (KB-C2 (P-gp overexpressing); drug efflux; 10 µM, 60 min).
The viability of CC(=O)O[C@H]1C(=O)[C@@]2(C)[C@H]([C@H](OC(=O)c3ccccc3)[C@]3(O)C[C@H](OC(=O)[C@H](O)[C@@H](NC(=O)c4ccccc4)c4ccccc4)C(C)=C1C3(C)C)[C@]1(OC(C)=O)CO[C@@H]1C[C@@H]2O is reported as 62.3% (CHP-212 resistant sublines, USP7 V517F heterozygous; 0.04115 µM).
Under “log2 fold change”, Cn1cc(-c2ccc(-c3cncc(Cl)c3N3CCC4(CCNC4=O)CC3)cc2)cn1 is recorded as 2.25 (COLO 205; gene expression, microarray, measured: AK4 mRNA; concentration not given, 6 h; relative to: untreated cells).
Cc1cccc(-c2[nH]c(CNc3ccccc3F)nc2-c2ccc3ncnn3c2)n1 has a viability of 45% and 47% and 39% (MM1.S; XTT; 1.5 µM).
With O=C(/C=C/C=C/C=C/C1CCCCC1)NC1=C[C@@](O)(/C=C/C=C/C=C/C(=O)NC2=C(O)CCC2=O)[C@@H]2O[C@@H]2C1=O the GI50 was 20900 nM (RKO; cell growth, CellTiter-Glo; 78 h).
The fold induction of O=C(O)CN(c1ccc(N(CC(=O)O)S(=O)(=O)c2ccc3c(c2)OCO3)c2ccccc12)S(=O)(=O)c1ccc2c(c1)OCO2 is reported as greater than 2 (HepG2-C8 ARE-luciferase reporter cells; ARE reporter activation, luciferase reporter; 10 µM, 24 h, 0.1% DMSO; relative to: vehicle control).
With COc1cc(/C=C/C(=O)N2CCC=CC2=O)cc(OC)c1OC the mRNA level was 60.2 ± 6.6% (MDA-MB-468; quantitative RT-PCR, measured: BACE2; 30 µM, 8 h; relative to: untreated cells).
Under “reversal of trafficking deficit”, CCCN1CCCC[C@H]1C(=O)Nc1c(C)cccc1C is recorded as 20.3% (primary rat hippocampal/cortical neuron-glia cultures; 1 µM, added: 1 µM α-synuclein oligomers).
The protein level of CC/C(=N\NC(=O)C(C)Nc1ccccc1)c1ccc(O)c(C)c1O (centres unmarked) is reported as 1.7 ± 0.41 (SK-OV-3; Western blot, measured: YAP; 10 µM, 6 h, 2D culture, unit not given; relative to: β-actin).
For COc1cnc2cccc(N3CCc4c(cc(Cn5ccnc5C)cc4-c4cn(C)nc4C(F)(F)F)C3=O)c2c1, the EC50 was 3680 nM (Calu-6; cell growth, inhibitor; 120 h).
With Cn1cnc2c(F)c(Nc3ccc(Br)cc3F)c(C(=O)NOCCO)cc21 the viability was 33% (A-375; 0.625 µM, 72 h).
NC(=O)c1cccc2c1O/C(=C\c1ccc(C(=O)NCCc3nc4ccccc4[nH]3)s1)C2=O — result for PARylation: “inhibited” (SUM149; cellular PARylation, inhibitor, Western blot; added: H2O2).
The IC50 of Cc1c(C)c2c(c(C)c1O)CCC(C)(COc1ccc(CC3SC(=O)NC3=O)cc1)O2 (centres unmarked) is reported as 52000 nM (iPSC-derived hepatocytes B3; cell viability; 72 h, differentiation day 23).
CCN(c1cc(-c2ccc(CN3CCOCC3)cc2)cc(C(=O)NCc2c(C)cc(C)[nH]c2=O)c1C)C1CCOCC1: IC50 “inactive” (HD-MB03; 168 h).
For CCn1cc(-c2cc(Cn3ccnc3)cc3c2CCN([C@H](c2cc(OC)ccn2)C2CC2)C3=O)c(C(F)(F)F)n1, the EC50 was greater than 30000 nM (DMS-273; cell growth, inhibitor; 120 h).
For CC1(C)OCCn2c1nc1c(N3CCOCC3)nc(-c3cnc(N)nc3)nc12, the IC50 was 513 nM (HD-MB03; cell growth; 168 h, single agent).
For Cn1cc(Nc2nccc(-c3ccc4c(c3)CN(C3COC3)CC[C@H]4NC(=O)c3cn(C(C)(C)C)nn3)n2)cn1, “number of unchanged genes” read 1 (human B cells; 100 nM, 64 h, stimulation-upregulated genes, added: anti-IgM).
With COc1cc(C(=O)O)ccc1NC(=O)[C@@H]1N[C@@H](CC(C)(C)C)[C@](C#N)(c2ccc(Cl)cc2F)[C@H]1c1cccc(Cl)c1F the IC50 was 49.9 nM (HD-MB03; cell growth; 168 h, single agent).
CCn1cc(-c2cc(Cn3ccoc3=N)cc3c2CCN([C@@H](C)c2cc(OC)ccn2)C3=O)c(C(F)(F)F)n1 has an EC50 of greater than 30000 nM (HCT-8; cell growth, inhibitor; 120 h).
With NC(=O)C1CCCN1C(=O)Cc1ccc(N(CCCO)Cc2cnc3nc(N)nc(N)c3n2)cc1 (centres unmarked) the mitochondrial toxicity was 18.8 ± 10.1% (786-O; high-content imaging, measured: MitoTracker Red uptake; 10 µM).
For C[C@]1(c2nc3c(C(N)=O)cccc3[nH]2)CCCN1, IC50 read “inactive” (HD-MB03; 168 h).
C=CC(=O)N1[C@@H](c2ccc3c(c2)OCO3)c2[nH]c3ccccc3c2C[C@H]1C(=O)NC — result for “mean neuron degeneration”: 77.9% (rat DRG neurons; 0.3704 µM, 48 h, added: vincristine 40 nM).
CC1(C)CCC(c2ccc(Cl)cc2)=C(CN2CCN(c3ccc(C(=O)NS(=O)(=O)c4ccc(N[C@H](CCN5CCOCC5)CSc5ccccc5)c(S(=O)(=O)C(F)(F)F)c4)cc3)CC2)C1 gave an IC50 of 83.1 nM (HD-MB03; cell growth; 168 h, DMSO).
O=C(O)/C=C/c1ccc(O)c(O)c1 — result for protein level: “increased” (H9c2; western blot, measured: HO-1 and NQO1; concentration not given).
Nc1ccn([C@H]2CC[C@@H](CO)O2)c(=O)n1: “reversal of trafficking deficit” -16.3% (primary rat hippocampal/cortical neuron-glia cultures; 1 µM, added: 1 µM α-synuclein oligomers).
For Cc1nc(Nc2n[nH]c3c2CN(C(=O)N[C@H](CN(C)C)c2ccccc2)C3(C)C)c2sccc2n1, “fold change in IC50” read 1.85 (HD-MB03; concentration not given, added: ribociclib NG; relative to: ribociclib over DMSO).
Cc1ccc(-c2cc(C(F)(F)F)nn2-c2ccc(S(N)(=O)=O)cc2)cc1 gave a PGE2 level of 120 pg/mL (RAW264.7; ELISA; concentration not given, 24 h, added: LPS 100 ng/mL).
CC(=O)c1ccc(-c2cccc(NC(=O)CCc3cccc4c3B(O)OC4)c2)cc1 gave a resistance of no less than 32 fold (HCT-116 CPSF3 mutant clones; relative to: parental HCT-116).
With C=Cc1c2[n-]c(c1C)/C=c1\[n-]/c(c(C)c1C=C)=C\c1[n-]c(c(CCC(=O)O)c1C)/C=c1\[n-]c(c(C)c1CCC(=O)O)=C2.[Sn+4] the fold change was 3.76 (SH-SY5Y; RNA-seq, measured: FLT1 mRNA; 5 µM, 5 h; relative to: untreated cells).
For Cc1cc(Nc2ncc(Cl)c(Nc3ccccc3S(=O)(=O)C(C)C)n2)c(OC(C)C)cc1C1CCNCC1, “log2 fold change” read -2.65 (CLB-BAR; phosphoproteomics LC-MS/MS, measured: PDZD11 phosphorylation; 200 nM, 60 min; relative to: untreated).
The selectivity ratio of O[C@@H]1[C@@H](O)[C@H](Nc2cc3cccnc3c3ncccc23)OC[C@H]1O is reported as 10 (HFF-1 and PC-3; MTT; 48 h, dark; relative to: IC50 HFF-1 over IC50 PC-3).
With Cn1c(Nc2nc3ccc(C(F)(F)F)cc3s2)nc2cc(C(=O)NCCOCCO)ccc21 the fold change was 1.93 (SH-SY5Y; RNA-seq, measured: FLNC mRNA; 5 µM, 5 h; relative to: untreated cells).
The Emax of COc1cc(N2CCC(N3CCN(C)CC3)CC2)ccc1Nc1ncc(Cl)c(Nc2ccccc2P(C)(C)=O)n1 is reported as 75.1% (NCI-H3122 (EML4-ALK variant 1); cell viability).
With Cc1cc(C)nc(SCC(=O)Nc2ncc(Cc3cccc(OCc4cn(Cc5ccccc5C)nn4)c3)s2)n1 the inhibition was 40.6 ± 4.5% (HGC-27; cell viability, MTS; 10 µM).
With COc1cc(Nc2ncc3c(n2)-c2ccc(Cl)cc2C(c2c(F)cccc2OC)=NC3)ccc1C(=O)O the IC50 was 40.7 nM (HD-MB03; cell growth; 168 h, DMSO).
The fold change of CCCCc1oc2ccc(NS(C)(=O)=O)cc2c1C(=O)c1ccc(OCCCN(CCCC)CCCC)cc1 is reported as 2.4 fold (human embryonic stem cell aggregates; mRNA level, microarray, measured: GRIA1; 0.5 µM, 120 h; relative to: untreated, up-regulated).
For Cc1cnc(NC2CCOCC2)nc1-n1cnc(C(=O)NC(CN)c2cc(F)cc(Cl)c2)c1 (centres unmarked), “G2 phase cells” read 1.3% (A-375; flow cytometry; 1 µM, 48 h).
For Cc1ccc(-c2cc3ccccc3c(N)n2)cc1, “early apoptotic cells” read 5.4% (SEM; annexin V-FITC/PI flow cytometry, measured: annexin V+ PI-; 2.5 µM, 72 h).
Nc1cccc2c1C(=O)N(C1CCC(=O)NC1=O)C2=O (centres unmarked) has a viability of 85% (bone marrow CD138+ myeloma cells; XTT; 1 µM, mean of three patients).
Brc1c(Br)c(Br)c2n[nH]nc2c1Br — result for IC50: “inactive” (HD-MB03; relative to: DMSO).
CC(C)(c1ccc(O)cc1)c1ccc(O)cc1: “spheroid area increase” 165% (HepG2 spheroids; planimetry; 10 µM, 24 to 96 h; relative to: mean area of 72 h spheroids).
For CNNCc1ccc(C(=O)NC(C)C)cc1, “reversal of trafficking deficit” read -15.4% (primary rat hippocampal/cortical neuron-glia cultures; 1 µM, added: 1 µM α-synuclein oligomers).
For CC/C(=N\NC(=O)NCc1cccc(O)c1)c1ccc(O)c(C)c1O, the protein level was 1.62 ± 0.63 (SK-OV-3; Western blot, measured: YAP; 10 µM, 1 h, 2D culture, unit not given; relative to: β-actin).
CCc1cnc(N2CCC(c3nc(COc4ccc(-n5cnnn5)cc4)cs3)CC2)nc1 — result for “log2 fold change”: -0.623 (HEK293T; RNA-seq, measured: HSPA1A mRNA; 10 µM, 6 h; relative to: vehicle).
Cc1cc(C)n(C(=S)[S][Au][PH](CCCCCC[PH]([Au][S]C(=S)n2nc(C)cc2C)(c2ccccc2)c2ccccc2)(c2ccccc2)c2ccccc2)n1 has a log TGI of greater than -4 log10 M (786-O; cell growth, NCI-60 screen; renal cancer).
Under “S phase mitotic cells”, C=CCn1c(=O)c2cnc(Nc3ccc(N4CCN(C)CC4)cc3)nc2n1-c1ccc2c(n1)[C@@](O)(CC)CC2 is recorded as 1.53% (NCI-H1048; flow cytometry; concentration not given).
The viable cells of CC1(C)CCC(CN2CCN(c3ccc(C(=O)NS(=O)(=O)c4ccc(NCC5CCOCC5)c([N+](=O)[O-])c4)c(Oc4cnc5[nH]ccc5c4)c3)CC2)=C(c2ccc(Cl)cc2)C1 is reported as 94.9% (THP-1; annexin V/PI flow cytometry, measured: annexin V-/PI-; 1.6 µM, 24 h).
